Literature values that unrelated publications cite.
Protocols differ between the studies behind these lines. ± gives the spread as reported.
Sequence of UniProt O43570 (whole entry, looked up): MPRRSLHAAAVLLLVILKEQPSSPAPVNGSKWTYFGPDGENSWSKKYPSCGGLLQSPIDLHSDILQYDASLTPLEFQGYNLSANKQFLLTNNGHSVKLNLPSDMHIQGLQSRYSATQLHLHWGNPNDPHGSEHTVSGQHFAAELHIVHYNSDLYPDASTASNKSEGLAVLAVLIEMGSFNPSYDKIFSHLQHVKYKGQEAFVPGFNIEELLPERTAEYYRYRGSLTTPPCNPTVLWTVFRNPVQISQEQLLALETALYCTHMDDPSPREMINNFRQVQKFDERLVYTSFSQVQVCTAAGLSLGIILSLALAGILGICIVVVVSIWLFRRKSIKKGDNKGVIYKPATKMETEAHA

Structure (SMILES)	tested on	assay	test system	setting	quantity	value
CNc1nc2ccccc2n2c(CCc3ccccc3)cnc12	A-375	cell growth	–	–	IC50	1.57 µM
CCNc1cc2c(cc1C)C1(c3cc(C)c(NCC)cc3O2)c2ccccc2C(=O)N1N=Cc1ccnc(-c2cc(C)ccn2)c1.Cc1c(C)c(-c2ccc(-c3ccccc3)cc2)[c-](C)c1C.F[P-](F)(F)(F)(F)F.[Cl-].[Ir+3]	A549 cancer cells	–	–	–	IC50	2.6 ± 0.3 µM
Cc1ccc(C2C3=C(COC3=O)NC3=C2C(=O)c2ccccc2C3=O)cc1 (centres unmarked)	HEK293 cells	cell growth	–	–	IC50	> 20 µM
O=C1c2ccccc2NC(c2ccc([N+](=O)[O-])cc2)N1/N=C/c1ccc([N+](=O)[O-])cc1 (centres unmarked)	human renal tubule TH-1	cytotoxicity	–	–	IC50	896 µM
C=CC(OS(=O)(=O)O)c1ccc(OC)cc1 (centres unmarked)	–	sulfonation, substrate	male rat liver	–	Km	63 µM
CC(C)(C)C1=CC(=NNC(=O)c2ccncc2)C=C(C(C)(C)C)C1=O	NR-9456 (mouse macrophages)	cell viability	–	–	IC50	> 100 µM
CCC1=C(O)c2c(oc(-c3ccc4cc(OC)ccc4c3)cc2=O)C(CC)(CC)C1=O	KB	cell growth, SRB	–	–	IC50	10.8 µM
Fc1cc2nc3c4cccnc4c4ncccc4c3nc2cc1F.[Cl-].[Cl-].[Ru+2].c1ccncc1.c1ccncc1.c1ccncc1.c1ccncc1	L-O2	phototoxicity	–	light irradiation	IC50	30 ± 2.1 µM
CC(=O)OC1C2C3CCC(C(C)(O)C4CC(C)=C(C)C(=O)O4)C3(C)CCC2C2(C)C(=O)C=CC(O)C23OC13 (centres unmarked)	KB	cell growth	–	–	IC50	0.85 µM
C=CC(O)c1ccc(OC)cc1 (centres unmarked)	–	–	male rat, lung microsomes	–	Km	26 µM
Cc1ccccc1-c1cc(N2CCNCC2)ncc1N(C)C(=O)C(C)(C)c1cc(C(F)(F)F)cc(C(F)(F)F)c1	–	–	healthy volunteers, plasma	oral, dose not given, netupitant-palonosetron, fed	half-life	82.9 h
Oc1cccc(-c2cccc(O)n2)n1.[Cl-].[Cl-].[Ru+2].c1cnc2c(c1)c1c(c3cccnc32)OCCO1.c1cnc2c(c1)c1c(c3cccnc32)OCCO1	HeLa	cell viability	–	dark	IC50	730 µM
[Cl-].[Cl-].[Ru+2].c1ccc(-c2ccccn2)nc1.c1ccc(-c2ccccn2)nc1.c1cnc2c(c1)ccc1cccnc12	B16-F10	–	–	dark	IC50	> 100 µM
CC(=O)OCC1=C(C)CC(C(C)C2CCC3C4CC5OC56C(OC(C)=O)C=CC(=O)C6(COC(C)=O)C4CCC23C)OC1=O (centres unmarked)	Hs-578T	cell growth	–	–	IC50	0.32 µM
COCCOCCOCCOCCC(=O)NCc1cc(CNC(=O)CCOCCOCCOCCOC)cc(-c2cc3cc4nc(c(OC)c5[nH]c(cc6nc(cc2[nH]3)CC6(C)C)cc5-c2cc(CNC(=O)CCOCCOCCOCCOC)cc(CNC(=O)CCOCCOCCOCCOC)c2)CC4(C)C)c1	–	–	DMF	room temperature	Soret (B) absorption maximum	363 nm
CC[C@H](C)[C@@H]1NC(=O)[C@H](Cc2c[nH]c3ccccc23)NC(=O)[C@H](C)NC(=O)[C@H](C(C)C)NC(=O)[C@H](CC(C)C)NC(=O)[C@H](Cc2c[nH]c3ccccc23)NC1=O	CT26 (mouse)	–	–	–	IC50	12 µM
CN1C(=O)[C@@H](Cc2ccc(O)cc2)NC(=O)CNC(=O)[C@H](Cc2ccc3ccccc3c2)NC(=O)[C@H](CCCNC(=N)N)NC(=O)[C@H]1CCCNC(=O)c1ccc(CNC(=O)CN2CCN(CC(=O)O)CCN(CC(=O)O)CCN(CC(=O)O)CC2)cc1 [gallium-68 labelled]	–	PET dosimetry	human patients, liver	–	absorbed dose coefficient	0.0175 mGy/MBq
CC1=C2[O][Ru-]([Cl])[O+]=C2C=CN1CCCCCCCCCCCCN1C=CC2=[O+][Ru-]([Cl])[O]C2=C1C.Cc1ccc(C(C)C)cc1.Cc1ccc(C(C)C)cc1	A2780	MTT	–	–	IC50	1.5 ± 0.3 µM
COc1ccccc1NC(=O)N[C@H](C(=O)Nc1ccc(C(=O)NO)cc1)c1ccccc1	KG-1	cell viability, MTT	–	–	IC50	2.8 µM
N=C(NO)NN=Cc1ccc2ccccc2n1	L1210	–	–	–	IC50	6.8 µM
CC(=O)O[C@H]1C2=C(C(=O)C(OC(=O)c3ccc(Cl)cc3)=C(C(C)C)C2=O)[C@@]2(C)CCCC(C)(C)[C@@H]2[C@@H]1O	HL-60	cell growth	–	–	GI50	≤ 5 µM
O=C1OCC2=C1C(c1cccc(Br)c1)C1=C(N2)C(=O)c2ccccc2C1=O (centres unmarked)	HEK293 cells	cell growth	–	–	IC50	7.2 ± 0.05 µM
O=C(CCCCCCCCCN=C=S)CC(=O)N[C@H]1CCOC1=O	Pseudomonas aeruginosa	–	PAO1	concentration not given	inhibition of elastase B production	~50%
Cc1cc(S(N)(=O)=O)c(Cl)cc1NC1CCCCC1	Carbonic anhydrase 12 (CA12, Homo sapiens, UniProt O43570)	fluorescent thermal shift	–	pH 7.0, 37 °C, observed	Kd	0.42 µM
Cc1ccc(C(C)C)cc1.O=C(N=P(c1ccccc1)(c1ccccc1)c1ccccc1)c1ccccn1.[Cl-].[Cl][Ru+]	patient-derived renal proximal tubular cells	cytotoxicity	–	–	IC50	13.8 ± 1.46 µM
CC(=O)OC1CC2C3C(OC(C)=O)C4OC45C(O)C=CC(=O)C5(C)C3CCC2(C)C1C(C)(O)C1CC(C)=C(C)C(=O)O1 (centres unmarked)	Lu1	cell growth	–	–	IC50	2.46 µM
N=C(N)NCCC[C@@H]1NC(=O)[C@H](CCCCNC(=O)CCOCCOCCOCCOCCNC(=O)CC[C@H](NC(=O)CCOCCOCCOCCOCCNC(=O)CN2CCN(CC(=O)O)CCN(CC(=O)O)CCN(CC(=O)O)CC2)C(=O)NCCOCCOCCOCCOCCC(=O)NCCCC[C@@H]2NC(=O)[C@@H](Cc3ccccc3)NC(=O)[C@H](CC(=O)O)NC(=O)CNC(=O)[C@H](CCCNC(=N)N)NC2=O)NC(=O)[C@@H](Cc2ccccc2)NC(=O)[C@H](CC(=O)O)NC(=O)CNC1=O [indium-111 labelled]	–	–	athymic nude mice, U-87 MG glioma xenograft, tumour	72 h post-injection	tumour uptake	2.18 %ID/g
O=C(CCc1ccc(O)c(O)c1)NCCc1ccc(O)cc1	RAW264.7	nitric oxide production	–	24 h, together with: LPS 100 ng/mL	IC50	40.4 ± 4.65 µM
CCC1=C(O)c2c(oc(-c3ccc4ccccc4c3)cc2=O)C(CC)(CC)C1=O	HCT-8	cell growth, SRB	–	–	IC50	1.29 µM

Excerpt of the above:
Structure (SMILES)	tested on	assay	test system	setting	quantity	value
N=C(N)NCCC[C@@H]1NC(=O)[C@H](CCCCNC(=O)CCOCCOCCOCCOCCNC(=O)CC[C@H](NC(=O)CCOCCOCCOCCOCCNC(=O)CN2CCN(CC(=O)O)CCN(CC(=O)O)CCN(CC(=O)O)CC2)C(=O)NCCOCCOCCOCCOCCC(=O)NCCCC[C@@H]2NC(=O)[C@@H](Cc3ccccc3)NC(=O)[C@H](CC(=O)O)NC(=O)CNC(=O)[C@H](CCCNC(=N)N)NC2=O)NC(=O)[C@@H](Cc2ccccc2)NC(=O)[C@H](CC(=O)O)NC(=O)CNC1=O [indium-111 labelled]	–	–	athymic nude mice, U-87 MG glioma xenograft, tumour	72 h post-injection	tumour uptake	2.18 %ID/g
O=C(CCc1ccc(O)c(O)c1)NCCc1ccc(O)cc1	RAW264.7	nitric oxide production	–	24 h, together with: LPS 100 ng/mL	IC50	40.4 ± 4.65 µM
